# Results pooled from the literature.
# A part holds a random share of what one study measured. Several values in a cell are separate wells, animals, samples, runs or records.
# UniProt Q9BQI3, sequence (whole entry, looked up): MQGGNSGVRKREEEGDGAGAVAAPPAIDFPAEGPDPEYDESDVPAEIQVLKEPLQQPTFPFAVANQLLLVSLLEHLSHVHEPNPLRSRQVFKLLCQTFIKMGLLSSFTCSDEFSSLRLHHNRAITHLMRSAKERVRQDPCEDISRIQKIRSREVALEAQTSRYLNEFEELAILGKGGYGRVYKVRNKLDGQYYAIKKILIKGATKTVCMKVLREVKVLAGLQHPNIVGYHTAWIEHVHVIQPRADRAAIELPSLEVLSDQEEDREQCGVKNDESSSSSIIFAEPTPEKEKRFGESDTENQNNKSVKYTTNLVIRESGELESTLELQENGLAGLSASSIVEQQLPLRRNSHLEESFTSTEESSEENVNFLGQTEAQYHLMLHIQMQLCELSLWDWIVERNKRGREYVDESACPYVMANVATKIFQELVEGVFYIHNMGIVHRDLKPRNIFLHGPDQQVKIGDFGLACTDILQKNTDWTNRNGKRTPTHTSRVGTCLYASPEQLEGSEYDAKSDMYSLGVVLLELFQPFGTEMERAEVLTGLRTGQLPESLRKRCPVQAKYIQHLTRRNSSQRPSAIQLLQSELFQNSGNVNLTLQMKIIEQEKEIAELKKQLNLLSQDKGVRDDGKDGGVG
# UniProt P43403, sequence (whole entry, looked up): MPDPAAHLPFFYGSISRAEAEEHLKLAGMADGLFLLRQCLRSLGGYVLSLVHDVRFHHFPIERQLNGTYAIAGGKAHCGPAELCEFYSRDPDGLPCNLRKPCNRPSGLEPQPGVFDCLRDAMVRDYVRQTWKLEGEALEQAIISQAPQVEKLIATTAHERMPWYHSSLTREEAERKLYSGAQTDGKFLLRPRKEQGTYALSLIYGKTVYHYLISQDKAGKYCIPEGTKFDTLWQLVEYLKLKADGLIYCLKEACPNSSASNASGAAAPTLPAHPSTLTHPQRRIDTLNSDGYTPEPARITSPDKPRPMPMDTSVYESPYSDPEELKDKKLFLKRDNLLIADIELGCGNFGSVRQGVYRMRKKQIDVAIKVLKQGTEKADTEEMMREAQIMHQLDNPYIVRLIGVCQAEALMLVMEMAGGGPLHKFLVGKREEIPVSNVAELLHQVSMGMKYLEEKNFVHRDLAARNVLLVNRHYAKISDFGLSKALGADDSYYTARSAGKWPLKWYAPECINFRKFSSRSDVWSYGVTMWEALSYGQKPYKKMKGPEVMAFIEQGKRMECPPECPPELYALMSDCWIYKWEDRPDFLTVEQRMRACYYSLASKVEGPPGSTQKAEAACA
# UniProt P41743, sequence (whole entry, looked up): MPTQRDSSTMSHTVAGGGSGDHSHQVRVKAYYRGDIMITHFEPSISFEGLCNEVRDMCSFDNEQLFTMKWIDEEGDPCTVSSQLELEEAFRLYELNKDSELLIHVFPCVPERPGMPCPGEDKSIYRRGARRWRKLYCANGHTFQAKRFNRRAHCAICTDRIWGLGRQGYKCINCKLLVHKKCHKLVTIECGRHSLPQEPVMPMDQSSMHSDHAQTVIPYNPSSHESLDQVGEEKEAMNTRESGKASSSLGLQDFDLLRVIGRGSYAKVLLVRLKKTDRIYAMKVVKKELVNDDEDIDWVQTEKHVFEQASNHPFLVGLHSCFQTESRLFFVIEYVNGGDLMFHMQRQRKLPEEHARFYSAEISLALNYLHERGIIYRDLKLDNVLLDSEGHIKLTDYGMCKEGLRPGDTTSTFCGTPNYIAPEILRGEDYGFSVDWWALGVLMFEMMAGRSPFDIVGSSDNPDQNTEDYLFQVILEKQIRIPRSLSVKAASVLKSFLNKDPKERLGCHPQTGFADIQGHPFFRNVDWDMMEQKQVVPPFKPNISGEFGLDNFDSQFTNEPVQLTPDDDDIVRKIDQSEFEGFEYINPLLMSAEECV
# UniProt Q04759, sequence (whole entry, looked up): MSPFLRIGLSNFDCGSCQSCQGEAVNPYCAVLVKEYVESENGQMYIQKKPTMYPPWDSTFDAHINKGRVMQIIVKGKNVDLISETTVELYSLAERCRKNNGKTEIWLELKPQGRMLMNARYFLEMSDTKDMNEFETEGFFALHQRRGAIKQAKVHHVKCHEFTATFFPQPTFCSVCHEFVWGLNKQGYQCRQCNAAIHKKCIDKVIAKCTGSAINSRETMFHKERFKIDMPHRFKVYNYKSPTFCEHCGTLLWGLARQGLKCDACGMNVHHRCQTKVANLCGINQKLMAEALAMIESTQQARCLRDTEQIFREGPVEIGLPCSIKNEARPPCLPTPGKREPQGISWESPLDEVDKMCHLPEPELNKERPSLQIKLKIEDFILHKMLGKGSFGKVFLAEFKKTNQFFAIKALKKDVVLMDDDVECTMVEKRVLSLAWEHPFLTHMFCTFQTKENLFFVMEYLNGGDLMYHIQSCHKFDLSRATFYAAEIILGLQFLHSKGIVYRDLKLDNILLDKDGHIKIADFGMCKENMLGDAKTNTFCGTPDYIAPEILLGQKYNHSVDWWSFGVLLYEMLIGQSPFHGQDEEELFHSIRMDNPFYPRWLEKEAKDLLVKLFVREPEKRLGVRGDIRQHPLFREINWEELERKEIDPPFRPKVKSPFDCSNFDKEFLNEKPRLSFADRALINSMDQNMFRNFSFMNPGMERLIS
# UniProt Q12852, sequence (whole entry, looked up): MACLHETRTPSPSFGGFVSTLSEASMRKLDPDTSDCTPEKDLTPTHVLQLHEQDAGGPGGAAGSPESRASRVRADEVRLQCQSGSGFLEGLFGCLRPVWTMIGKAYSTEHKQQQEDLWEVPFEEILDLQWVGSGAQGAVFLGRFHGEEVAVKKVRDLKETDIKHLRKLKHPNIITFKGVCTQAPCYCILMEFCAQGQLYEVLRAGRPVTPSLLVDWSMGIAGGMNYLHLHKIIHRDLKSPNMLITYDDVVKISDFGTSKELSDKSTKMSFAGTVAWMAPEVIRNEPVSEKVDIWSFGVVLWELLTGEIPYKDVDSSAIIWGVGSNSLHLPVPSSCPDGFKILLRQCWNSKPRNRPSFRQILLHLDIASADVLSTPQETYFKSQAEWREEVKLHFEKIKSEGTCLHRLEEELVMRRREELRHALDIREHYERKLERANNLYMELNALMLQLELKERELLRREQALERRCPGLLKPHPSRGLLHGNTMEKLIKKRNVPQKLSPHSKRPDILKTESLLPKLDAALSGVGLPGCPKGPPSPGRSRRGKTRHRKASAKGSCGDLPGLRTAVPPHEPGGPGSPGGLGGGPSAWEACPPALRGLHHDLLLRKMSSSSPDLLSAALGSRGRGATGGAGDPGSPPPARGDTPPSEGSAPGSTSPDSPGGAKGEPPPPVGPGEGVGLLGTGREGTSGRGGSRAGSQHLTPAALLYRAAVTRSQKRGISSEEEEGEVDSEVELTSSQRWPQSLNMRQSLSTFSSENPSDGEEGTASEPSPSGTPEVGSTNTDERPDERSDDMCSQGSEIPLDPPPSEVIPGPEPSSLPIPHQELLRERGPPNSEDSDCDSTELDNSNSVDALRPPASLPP
# UniProt P37023, sequence (whole entry, looked up): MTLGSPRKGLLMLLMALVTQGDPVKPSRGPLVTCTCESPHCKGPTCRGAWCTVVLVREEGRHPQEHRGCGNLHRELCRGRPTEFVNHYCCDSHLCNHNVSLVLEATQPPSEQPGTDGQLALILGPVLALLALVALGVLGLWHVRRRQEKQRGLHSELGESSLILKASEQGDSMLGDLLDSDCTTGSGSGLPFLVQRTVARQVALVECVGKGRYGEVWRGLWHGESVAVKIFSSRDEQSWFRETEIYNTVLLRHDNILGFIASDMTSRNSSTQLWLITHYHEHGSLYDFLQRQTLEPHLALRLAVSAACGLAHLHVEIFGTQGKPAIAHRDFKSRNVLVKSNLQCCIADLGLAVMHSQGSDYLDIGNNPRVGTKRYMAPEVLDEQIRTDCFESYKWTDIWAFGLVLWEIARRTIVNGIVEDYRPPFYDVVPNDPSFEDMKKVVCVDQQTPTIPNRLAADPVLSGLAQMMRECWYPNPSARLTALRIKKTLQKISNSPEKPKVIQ

# Block 1
# Cell line: A-375
# Tested at: 100 µM
# Time: 36 h
Structure (SMILES),viability
CO[C@H]1C(=O)[C@]2(C)[C@@H](OC)C[C@H]3OC[C@@]3(OC(C)=O)[C@H]2[C@H](OC(=O)c2ccccc2)[C@]2(O)C[C@H](OC(=O)[C@H](O)[C@@H](NC(=O)OC(C)(C)C)c3ccccc3)C(C)=C1C2(C)C,40.8%
OCc1ccc(O[C@@H]2O[C@H](CO)[C@@H](O)[C@H](O)[C@H]2O)cc1,121%
O=C(OC[C@H]1O[C@@H](OC(=O)c2cc(O)c(O)c(OC(=O)c3cc(O)c(O)c(O)c3)c2)[C@H](OC(=O)c2cc(O)c(O)c(OC(=O)c3cc(O)c(O)c(O)c3)c2)[C@@H](OC(=O)c2cc(O)c(O)c(OC(=O)c3cc(O)c(O)c(O)c3)c2)[C@@H]1OC(=O)c1cc(O)c(O)c(OC(=O)c2cc(O)c(O)c(O)c2)c1)c1cc(O)c(O)c(OC(=O)c2cc(O)c(O)c(O)c2)c1,24.6%
CC(C(=O)O)c1ccc2c(c1)CC(=O)c1ccccc1S2 (centres unmarked),98.1%
O=C[C@H](O)[C@@H](O)[C@H](O)[C@H](O)CO,116%
Oc1cc(O)cc(/C=C/c2ccc(O)c(O)c2)c1,59.5%
C=C1CCN([C@H](C)[C@](O)(Cn2cncn2)c2ccc(F)cc2F)CC1,11.4%
CCOC(=O)C1=C(C)NC(C)=C(C(=O)OC)C1c1cccc([N+](=O)[O-])c1 (centres unmarked),2.48%
CC(=O)OCC[N+](C)(C)C,121%
COc1ccc2cc3[n+](cc2c1OC)CCc1cc2c(cc1-3)OCO2,46.6%

# Block 2
# Cell line: mouse MPNST tumor cells
# Method: high-content immunofluorescence imaging
# Refers to: nuclear SOX9
# Tested at: 10 µM
# Time: 12 h
# Setting: mean of 2 replicates
# Relative to: DMSO control
# Direction: higher = more nuclear SOX9
Compound,nuclear SOX9 intensity
Cc1c(Cl)cccc1Nc1ncccc1C(=O)O,97.8 % of DMSO
Cc1nc(-c2ccc(OCC(C)C)c(C#N)c2)sc1C(=O)O,103 % of DMSO and 101 % of DMSO
NC(=O)c1cccc(-c2cc(Nc3ccc(OC(F)(F)F)cc3)ncn2)c1,160 % of DMSO
COc1cc(C(=O)NCC2(N(C)C)CCCC2)cc(OC)c1OCc1ccccc1,136 % of DMSO
CN(C)C/C=C(/c1ccc(Br)cc1)c1cccnc1,144 % of DMSO
Cc1ccc(NC(=O)Nc2cc(C(F)(F)F)ccc2F)cc1Nc1ccc2c(c1)NC(=O)/C2=C\c1ccc[nH]1,232 % of DMSO
O=C(O)C1CCCN(CCC=C(c2ccccc2)c2ccccc2)C1 (centres unmarked),89.2 % of DMSO
C[C@H](c1ccc(F)cc1CCCC(=O)O)N(c1cc(F)ccc1F)S(=O)(=O)c1ccc(Cl)cc1,122 % of DMSO

# Block 3
# SMILES: C[C@@]1(Cc2ccc(C#N)cc2)C(=O)N(c2cc(Cl)cc(Cl)c2)c2ncc(C(=O)NC3(c4nc(C5CCC5)no4)CC3)n21
# Read-out: cell-free assay
# Method: competition with immobilised ligand
# Tested at: 1 µM
target,remaining binding [%]
"PRKCQ (Homo sapiens, UniProt Q04759)",98
"Mast/stem cell growth factor receptor Kit, autoinhibited (KIT, Homo sapiens, UniProt P10721)",100
"MAK (Homo sapiens, UniProt P20794)",100
"HIPK4 (Homo sapiens, UniProt Q8NE63)",100
"MAP3K12 (Homo sapiens, UniProt Q12852)",100
"ZAP70 (Homo sapiens, UniProt P43403)",90
"PIK3C2G (Homo sapiens, UniProt O75747)",100
"STK32B (Homo sapiens, UniProt Q9NY57)",100
"ACVRL1 (Homo sapiens, UniProt P37023)",100
"PRKAA1 (Homo sapiens, UniProt Q13131)",100
"EIF2AK1 (Homo sapiens, UniProt Q9BQI3)",100
"TGFBR1 (Homo sapiens, UniProt P36897)",100
"PRKCI (Homo sapiens, UniProt P41743)",87
"MYLK3 (Homo sapiens, UniProt Q32MK0)",87

# Block 4
# Target: Muscle, skeletal receptor tyrosine-protein kinase (MUSK, Homo sapiens, UniProt O15146)
# UniProt O15146, sequence (whole entry, looked up): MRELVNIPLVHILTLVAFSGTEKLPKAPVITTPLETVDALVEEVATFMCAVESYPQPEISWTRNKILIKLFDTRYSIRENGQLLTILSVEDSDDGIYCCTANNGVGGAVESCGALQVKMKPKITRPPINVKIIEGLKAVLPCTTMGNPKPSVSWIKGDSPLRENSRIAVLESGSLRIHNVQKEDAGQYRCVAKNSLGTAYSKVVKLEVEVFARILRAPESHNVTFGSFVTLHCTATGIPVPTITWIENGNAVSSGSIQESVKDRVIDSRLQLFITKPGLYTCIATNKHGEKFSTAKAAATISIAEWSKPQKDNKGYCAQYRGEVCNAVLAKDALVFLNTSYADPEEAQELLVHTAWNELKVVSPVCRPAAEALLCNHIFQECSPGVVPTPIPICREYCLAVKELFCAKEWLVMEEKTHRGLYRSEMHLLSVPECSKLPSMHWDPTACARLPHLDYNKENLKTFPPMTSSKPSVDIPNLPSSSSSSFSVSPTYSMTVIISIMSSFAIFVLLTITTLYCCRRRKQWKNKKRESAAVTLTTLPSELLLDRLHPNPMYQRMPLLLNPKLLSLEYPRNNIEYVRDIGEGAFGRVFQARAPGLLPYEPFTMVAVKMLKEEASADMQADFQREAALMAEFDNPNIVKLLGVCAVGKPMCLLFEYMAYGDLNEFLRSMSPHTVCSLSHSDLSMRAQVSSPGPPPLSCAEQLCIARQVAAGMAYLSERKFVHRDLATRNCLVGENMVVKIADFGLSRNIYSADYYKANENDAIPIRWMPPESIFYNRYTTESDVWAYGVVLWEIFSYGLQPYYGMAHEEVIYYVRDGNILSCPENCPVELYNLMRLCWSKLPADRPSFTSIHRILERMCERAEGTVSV
# Read-out: enzyme activity
# Mode: inhibitor
# Tested at: 0.5 µM
# Relative to: control
Compound,remaining activity
COc1cc2ncnc(Nc3cccc(Cl)c3)c2cc1OC,88.3%
N#Cc1c(NC(=O)c2cccc3ccccc23)sc2c1CCCC2,94.8%
CCN(CC)C(=O)c1ccc(Nc2nc(OCC3CCCCC3)c3[nH]cnc3n2)cc1,77.5%
Cc1cc2ncc(-c3ccccc3)nc2cc1C,102%
Cc1nc2cc3nc(-c4cccs4)cnc3cc2n1C,90.6%
O=C1C(Cl)=C(N2C(=O)CCC2=O)C(=O)c2ccccc21,104%
O=C(NC(NC(=S)Nc1ccc(F)c([N+](=O)[O-])c1)C(Cl)(Cl)Cl)C(c1ccccc1)c1ccccc1 (centres unmarked),106%
CN(C)C[C@H]1CCn2c(c(C3=C(c4cn(C)c5ccccc45)C(=O)NC3=O)c3ccccc32)C1,85.6%
c1ccc(-c2cnc(Nc3ccc(OCCN4CCCC4)cc3)s2)cc1,84.2%
Ic1cccc(CSc2nnc(-c3ccncc3)o2)c1,94.1%
CCN(CC)CCNC(=O)c1c(C)[nH]c(/C=C2\C(=O)Nc3ccc(Cl)cc32)c1C,63.5%
O=C(Nc1cccc(Nc2nccc(Nc3cccc(C(F)(F)F)c3)n2)c1)C1CC1,101%

# Repeated from above (block 3):
target,remaining binding [%]
"MAK (Homo sapiens, UniProt P20794)",100
"HIPK4 (Homo sapiens, UniProt Q8NE63)",100
"MAP3K12 (Homo sapiens, UniProt Q12852)",100
"ZAP70 (Homo sapiens, UniProt P43403)",90
"PIK3C2G (Homo sapiens, UniProt O75747)",100
